# Results gathered from unrelated publications.
# Each line is one published result; not all experiments were run side by side. “And” joins repeats or separate records; there may be more than shown. ± gives the spread as reported.
# KRAS C118A/G12C: GTPase KRas (KRAS, Homo sapiens, UniProt P01116, C118A/G12C)
# KRAS G12D GDP-bound: GTPase KRas, GDP-bound (KRAS, Homo sapiens, UniProt P01116, G12D)
# KRAS G12C GDP-bound: GTPase KRas, GDP-bound (KRAS, Homo sapiens, UniProt P01116, G12C)
SMILES,target,assay,setting,scale,endpoint,value
Cc1cc(N)nc(-c2c(Cl)c3c4c(ncnc4c2F)N2CCN(C(=O)/C=C/c4nccc5c4CNCC5)C[C@H]2CO3)c1C(F)(F)F,"GTPase KRas, GDP-bound (KRAS, Homo sapiens, UniProt P01116, G13D)","nucleotide exchange, inhibitor, HTRF",,baseline: 29,potency decrease,~1800 fold
C[C@H]1CNCCN1c1cccc(-c2noc([C@@]3(C)CCCc4sc(N)c(C#N)c43)n2)n1,"GTPase KRas, with SOS1 (KRAS, Homo sapiens, UniProt P01116, C118S/G12V)","KRAS G12V-SOS1 binding, inhibitor, AlphaScreen",,baseline: 2,potency gain from axial methyl,10 fold
C=CC(=O)N1CCN(c2cccc(-c3noc([C@@]4(C)CCCc5sc(N)c(C#N)c54)n3)c2)CC1,"GTPase KRas (KRAS, Homo sapiens, UniProt P01116, G12C)","covalent inhibitor, mass spectrometry",,,kinact,0.474 s⁻¹ and 0.455 s⁻¹ and 1.57 s⁻¹
C=CC(=O)N1CC2(CCN(c3nc4c(c(-c5cc(O)cc6ccccc56)n3)CCCC4)C2)C1,KRAS C118A/G12C,"SOS1-catalysed nucleotide exchange, AlphaScreen",,,ligand efficiency,0.23
CC[C@H](C)[C@@H]1NC(=O)[C@H](Cc2ccc(O)cc2)NC(=O)[C@H](CC(C)C)NC(=O)[C@@H]2CCCN2C(=O)[C@@H](NC(=O)[C@H](CCCNC(=N)N)NC(=O)[C@H](CCCNC(=N)N)NC(C)=O)CSSC[C@@H](C(=O)N[C@@H](CCCNC(=N)N)C(=O)N[C@@H](CCCNC(=N)N)C(N)=O)NC(=O)[C@H](C(C)C)NC(=O)[C@@H]2CCCN2C(=O)[C@H](CC(=O)O)NC(=O)[C@H](C(c2ccccc2)c2ccccc2)NC(=O)[C@H](CO)NC1=O,KRAS G12D GDP-bound,affinity selection mass spectrometry,"mixture library 2, together with: protein titration up to 5 µM",lower is stronger binding,lowest bound protein concentration,0.08 µM
C#Cc1c(F)ccc2cc(O)cc(-c3ncc4c(N5CC6CCC(C5)N6)nc(OC[C@@]56CCCN5C[C@H](F)C6)nc4c3F)c12,"GTPase KRas, GppNHp-bound (KRAS, Homo sapiens, UniProt P01116)",SPR,wild type,baseline: GppNHp-bound over GDP-bound,on-rate decrease,1.4 fold
CC[C@H](C)[C@@H]1NC(=O)[C@H](Cc2ccc(-c3ccccc3)cc2)NC(=O)[C@H](CC(C)C)NC(=O)[C@@H]2CCCN2C(=O)[C@@H](NC(=O)[C@H](CCCNC(=N)N)NC(=O)[C@H](CCCNC(=N)N)NC(C)=O)CSSC[C@@H](C(=O)N[C@@H](CCCNC(=N)N)C(=O)N[C@@H](CCCNC(=N)N)C(N)=O)NC(=O)[C@H](C(C)C)NC(=O)[C@@H]2CCCN2C(=O)[C@H](CC(=O)O)NC(=O)[C@H](Cc2ccc(O)cc2)NC(=O)[C@H](CO)NC1=O,KRAS G12D GDP-bound,affinity selection mass spectrometry,"mixture library 4, together with: protein titration up to 2.5 µM",lower is stronger binding,lowest bound protein concentration,0.04 µM
C=CC(=O)N1CC2(CCN(c3nc(N[C@H](CC(=O)NC)CC(C)C)nc(-c4cccc(OC)c4Cl)n3)CC2)C1,KRAS C118A/G12C,"covalent, DNA-encoded library screen",,,enrichment factor,67
Cc1nn2c(N3CCN(CCO)CC3)cc(-c3ccccc3)nc2c1-c1ccccc1,"GTPase KRas (KRAS, Homo sapiens, UniProt P01116)",,,,intrinsic nucleotide release rate,no effect
CC[C@H](C)[C@@H]1NC(=O)[C@H](Cc2ccc(O)cc2)NC(=O)[C@H](CC(C)C)NC(=O)[C@@H]2CCCN2C(=O)[C@@H](NC(=O)[C@H](CCCNC(=N)N)NC(=O)[C@H](CCCNC(=N)N)NC(C)=O)CSSC[C@@H](C(=O)N[C@@H](CCCNC(=N)N)C(=O)N[C@@H](CCCNC(=N)N)C(N)=O)NC(=O)[C@H](C(C)C)NC(=O)[C@@H]2CCCN2C(=O)[C@H](CC(=O)O)NC(=O)[C@H](CC2CCCCC2)NC(=O)[C@H](CO)NC1=O,KRAS G12D GDP-bound,affinity selection mass spectrometry,"mixture library 2, together with: protein titration up to 5 µM",lower is stronger binding,lowest bound protein concentration,0.16 µM
C=CC(=O)N1CC2(CCN(c3nc(N[C@H](CC(=O)NC)CC(C)C)nc(-c4cccc(OC)c4OC)n3)C(C)C2)C1 (stereo partly drawn),KRAS C118A/G12C,"covalent, DNA-encoded library screen",,,enrichment factor,72
C=CC(=O)N1CCN(c2nc(OC[C@@H]3CCCN3C)nc3c(F)c(-c4nc(N)cc(C)c4C(F)(F)F)c(Cl)cc23)[C@@H](C)C1,KRAS G12C GDP-bound,"covalent inhibitor, SPR","GDP-bound, biotinylated",,kinact,0.00111 s⁻¹
C=CCO[C@H]1CCN2C(=O)[C@@H](NC(=O)[C@H](CCCNC(=N)N)NC(=O)[C@H](CCCNC(=N)N)NC(C)=O)CSSC[C@@H](C(=O)N[C@@H](CCCNC(=N)N)C(=O)N[C@@H](CCCNC(=N)N)C(N)=O)NC(=O)[C@H](C(C)C)NC(=O)[C@@H]3CCCN3C(=O)[C@H](CC(=O)O)NC(=O)[C@H](Cc3ccc(O)cc3)NC(=O)[C@H](CO)NC(=O)[C@H]([C@@H](C)CC)NC(=O)[C@H](Cc3ccc(-c4ccccc4)cc3)NC(=O)[C@H](CC3CCC3)NC(=O)[C@H]12,KRAS G12D GDP-bound,affinity selection mass spectrometry,"mixture library 3, together with: protein titration up to 2.5 µM",lower is stronger binding,lowest bound protein concentration,0.04 µM
C=CC(=O)N1CC2(CCN(c3nc4c(c(-c5cccc6sc(N)nc56)n3)CCCC4)C2)C1,KRAS C118A/G12C,"SOS1-catalysed nucleotide exchange, AlphaScreen",,,ligand efficiency,0.22
CCC[C@@H]1NC(=O)[C@H](CCc2ccccc2)NC(=O)[C@H](CC(C)C)NC(=O)[C@@H]2CCCN2C(=O)[C@@H](NC(=O)[C@H](CCCNC(=N)N)NC(=O)[C@H](CCCNC(=N)N)NC(C)=O)CSSC[C@@H](C(=O)N[C@@H](CCCNC(=N)N)C(=O)N[C@@H](CCCNC(=N)N)C(N)=O)NC(=O)[C@H](C(C)C)NC(=O)[C@@H]2CCCN2C(=O)[C@H](CC(=O)O)NC(=O)[C@H](Cc2ccc(O)cc2)NC(=O)[C@H](CO)NC1=O,KRAS G12D GDP-bound,affinity selection mass spectrometry,"mixture library 1, together with: protein titration up to 5 µM",lower is stronger binding,lowest bound protein concentration,5 µM
C=CC(=O)N1CCN(c2nc(OC[C@@H]3CCCN3C)nc3c(F)c(-c4nc(N)cc(C)c4C(F)(F)F)c(Cl)cc23)[C@@H](C)C1,"GTPase KRas, GDP-bound (KRAS, Homo sapiens, UniProt P01116)",SPR,wild type GDP-bound,,koff,0.0888 ± 0.0015 s⁻¹
CC(=O)N[C@@H](CCCNC(=N)N)C(=O)N[C@@H](CCCNC(=N)N)C(=O)N[C@H]1CSSC[C@@H](C(=O)N[C@@H](CCCNC(=N)N)C(=O)N[C@@H](CCCNC(=N)N)C(N)=O)NC(=O)[C@H](C(C)C)NC(=O)[C@@H]2CCCN2C(=O)[C@H](CC(=O)O)NC(=O)[C@H](Cc2ccc(O)cc2)NC(=O)[C@H](CO)NC(=O)[C@H](CCC(C)C)NC(=O)[C@H](CCc2ccccc2)NC(=O)[C@H](CC(C)C)NC(=O)[C@@H]2CCCN2C1=O,KRAS G12D GDP-bound,affinity selection mass spectrometry,"mixture library 1, together with: protein titration up to 5 µM",lower is stronger binding,lowest bound protein concentration,1.25 to 2.5 µM
C=CC(=O)N1C[C@H](C)N(c2nc(OC[C@@]34CCCN3C[C@H](F)C4)nc3c(F)c(-c4ccc(F)c5sc(N)c(C#N)c45)c(C(F)(F)F)cc23)C[C@H]1C,KRAS G12C GDP-bound,"covalent inhibitor, SPR","GDP-bound, biotinylated",,kinact,0.00236 s⁻¹

# A few entries again:
SMILES,target,assay,setting,scale,endpoint,value
CC(=O)N[C@@H](CCCNC(=N)N)C(=O)N[C@@H](CCCNC(=N)N)C(=O)N[C@H]1CSSC[C@@H](C(=O)N[C@@H](CCCNC(=N)N)C(=O)N[C@@H](CCCNC(=N)N)C(N)=O)NC(=O)[C@H](C(C)C)NC(=O)[C@@H]2CCCN2C(=O)[C@H](CC(=O)O)NC(=O)[C@H](Cc2ccc(O)cc2)NC(=O)[C@H](CO)NC(=O)[C@H](CCC(C)C)NC(=O)[C@H](CCc2ccccc2)NC(=O)[C@H](CC(C)C)NC(=O)[C@@H]2CCCN2C1=O,KRAS G12D GDP-bound,affinity selection mass spectrometry,"mixture library 1, together with: protein titration up to 5 µM",lower is stronger binding,lowest bound protein concentration,1.25 to 2.5 µM
C=CC(=O)N1C[C@H](C)N(c2nc(OC[C@@]34CCCN3C[C@H](F)C4)nc3c(F)c(-c4ccc(F)c5sc(N)c(C#N)c45)c(C(F)(F)F)cc23)C[C@H]1C,KRAS G12C GDP-bound,"covalent inhibitor, SPR","GDP-bound, biotinylated",,kinact,0.00236 s⁻¹
